{"data": "Assay results collected from several papers", "target": "Tyrosine-protein phosphatase non-receptor type 1 (PTPN1, Homo sapiens, UniProt P18031)", "Residues used in one study (P18031 1-435)": "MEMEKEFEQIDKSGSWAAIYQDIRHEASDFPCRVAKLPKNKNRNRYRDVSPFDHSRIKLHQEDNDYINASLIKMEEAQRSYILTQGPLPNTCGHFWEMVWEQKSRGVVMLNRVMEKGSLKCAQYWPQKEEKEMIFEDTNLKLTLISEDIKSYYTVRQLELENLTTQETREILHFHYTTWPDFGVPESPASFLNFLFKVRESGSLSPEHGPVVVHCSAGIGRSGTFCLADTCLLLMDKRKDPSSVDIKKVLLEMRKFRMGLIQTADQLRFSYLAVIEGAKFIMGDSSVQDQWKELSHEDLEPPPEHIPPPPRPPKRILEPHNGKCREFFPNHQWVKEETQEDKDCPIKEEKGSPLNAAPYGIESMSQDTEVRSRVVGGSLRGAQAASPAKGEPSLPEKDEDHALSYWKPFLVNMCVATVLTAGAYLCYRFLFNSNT", "note": "Protocols differ between the studies behind these lines."}
{"SMILES": "CC1(C)C=Cc2c(cc(O)c3c(=O)cc(-c4ccc(O)cc4O)oc23)O1", "assay": "Lineweaver-Burk secondary plots", "setting": "free enzyme", "quantity": "Ki", "result": "0.5 µM"}
{"SMILES": "COc1cc(O)cc(-c2cc3ccc(O)cc3o2)c1CC=C(C)CCC=C(C)CCC=C(C)C", "assay": "enzyme activity, inhibitor", "quantity": "Ki", "result": "6.3 µM"}
{"SMILES": "O=C1C=C(CCc2ccc(OC3OC(CO)C(O)C(O)C3O)cc2)CCC1 (stereo not shown)", "assay": "enzyme activity, inhibitor, absorbance", "quantity": "IC50", "result": "> 100 µM"}
{"SMILES": "CC(C)(O)CC(=O)CC(C(=O)O)C1CC[C@]2(C)C1CCC1[C@@]3(C)CC[C@H](O)C(C)(C)C3CC[C@]12C (stereo partly shown)", "assay": "enzyme activity, inhibitor, absorbance", "quantity": "Ki", "result": "3.46 µM"}
{"SMILES": "COc1cc(O)cc(C=Cc2ccc(O)cc2)c1CC=C(C)CCC=C(C)C", "assay": "enzyme activity, inhibitor", "quantity": "Ki", "result": "5.37 µM"}
{"SMILES": "C[C@@H]1O[C@@H](O[C@H]2C(=O)c3c(O)cc(O)cc3O[C@@H]2c2ccc(O)cc2)[C@H](O)[C@H](O)[C@H]1O", "assay": "Lineweaver-Burk secondary plots", "setting": "free enzyme", "quantity": "Ki", "result": "1.2 µM"}
{"SMILES": "CC1CCC2C(C(=O)O)=COC(OC3OC(CO)C(O)C(O)C3O)C12 (stereo not shown)", "assay": "enzyme activity, inhibitor, absorbance", "quantity": "IC50", "result": "> 100 µM"}
{"SMILES": "CC(C)=CCCC(C)=CCCC(C)=CCc1c(O)cc(O)c(CC=C(C)C)c1-c1cc2ccc(O)cc2o1", "assay": "enzyme activity, inhibitor", "quantity": "Ki", "result": "7.09 µM"}
{"SMILES": "COc1cc(O)c(CC=C(C)C)c2c1C(=O)[C@H](O)[C@@H](c1ccccc1)O2", "assay": "enzyme activity, inhibitor", "quantity": "Ki", "result": "8.08 µM"}
{"SMILES": "COC(=O)C1=COC(OC2OC(CO)C(O)C(O)C2O)C2C1CC(O)C2C (stereo not shown)", "assay": "enzyme activity, inhibitor, absorbance", "quantity": "IC50", "result": "> 100 µM"}
{"note": "Some of these lines once more:"}
{"SMILES": "COc1cc(O)cc(-c2cc3ccc(O)cc3o2)c1CC=C(C)CCC=C(C)CCC=C(C)C", "assay": "enzyme activity, inhibitor", "quantity": "Ki", "result": "6.3 µM"}
